Measurements pooled from the literature.
Compare with care: the assays were run in different laboratories. ± gives the spread as reported.

| Structure (SMILES) | target or system | assay | system | setting | quantity | result |
| --- | --- | --- | --- | --- | --- | --- |
| NC(=O)CCCn1c2ccc([N+](=O)[O-])cc2c(=O)n1Cc1ccccc1 | Leishmania amazonensis | parasite growth, imaging | mouse Peritoneal macrophage | 48 h, intracellular, amastigote | IC50 | 4.2 µM |
| O=C1Nc2ccc(Cl)cc2C1=Cc1ccc(-c2cccc(C(=O)NCC3CCNCC3)c2)o1 (mixture of isomers) | Ancylostoma ceylanicum | motility | adult worms | 48 h | IC50 | 5.6 µM |
| CCCCn1c2ccc([N+](=O)[O-])cc2c(=O)n1Cc1ccccc1 | Leishmania amazonensis | parasite growth, resazurin |  | 72 h, promastigote | IC50 | 0.6 µM |
| O=[N+]([O-])/C(Br)=C/c1ccco1 | Leishmania amazonensis, L. infantum, L. braziliensis |  | promastigotes | mean of three species | IC50 | 1.9 µM |
| Cc1ccc(/C=N/N=C/c2ccc([N+](=O)[O-])o2)cc1 | Trypanosoma equiperdum | parasite growth, CellTiter-Glo | IVM-t1 bloodstream form | 72 h | IC50 | 4.04 ± 0.53 µM |
| N#C/C=C/C(=O)Oc1ccc(Br)cc1 | Leishmania amazonensis | parasite growth, resazurin | mouse Macrophage | 24 h, intracellular, amastigote | IC50 | 18.1 µM |
| O=[N+]([O-])c1ccc(/C=N/N=C/c2ccc(O)cc2)o1 | Trypanosoma equiperdum | parasite growth, CellTiter-Glo | IVM-t1 bloodstream form | 72 h | IC50 | 5.01 ± 1.18 µM |
| CCOC(=O)C(NC(=O)CN1C(=O)N/C(=C\c2ccc3c(c2)OCO3)C1=O)C(C)C (centres unmarked) | Trypanosoma equiperdum | cell viability | IVM-t1 | 72 h | IC50 | > 66 µM |
| Cc1ccc(/C=N/N=C/c2ccc([N+](=O)[O-])s2)cc1 | Trypanosoma equiperdum | parasite growth, CellTiter-Glo | IVM-t1 bloodstream form | 72 h | IC50 | 3.39 ± 0.44 µM |
| CC(C)=CCC/C(C)=C/CNCCNC1C2CC3CC1CC(O)(C3)C2 (centres unmarked) | Mycolicibacterium smegmatis | microbial growth |  |  | IC50 | 216 µM |
| O=[N+]([O-])/C=C/c1ccco1 | Leishmania amazonensis, L. infantum, L. braziliensis |  | promastigotes | mean of three species | IC50 | 2.87 µM |
| COC1C=COC2(C)Oc3c(C)c(O)c4c(c3C2=O)C2=NC3(CCN(CC(C)C)CC3)NC2=C(NC(=O)C(C)=CC=CC(C)C(O)C(C)C(O)C(C)C(OC(=O)Nc2cscn2)C1C)C4=O (centres unmarked) | Mycobacteroides abscessus |  | ATCC 19977 | 50% human serum | IC50 | 0.05 µM |
| CCOC(=O)C(CC)NC(=O)CN1C(=O)S/C(=C\c2ccc(OC)cc2)C1=O (centres unmarked) | Trypanosoma equiperdum | cell viability | IVM-t1 | 72 h | IC50 | > 58 µM |
| O=[N+]([O-])c1ccc(/C=N/N=C/c2ccc([N+](=O)[O-])o2)cc1 | Trypanosoma equiperdum | parasite growth, CellTiter-Glo | IVM-t1 bloodstream form | 72 h | IC50 | 1.24 ± 0.46 µM |
| COc1cc(CNC(=O)C[C@H](C)CCC=C(C)C)ccc1OCc1cn(-c2cccc([N+](=O)[O-])c2)nn1 | HOP-62 | SRB |  | 10 µM, 48 h | growth percent | 82.7% |
| Cc1cc(N2CCC(C#N)(C3(C)CC3)C2=O)cc(C(=O)NCc2cc(F)cc(-c3cnn(C)c3)c2)n1 (racemic) | Plasmodium falciparum | parasite growth, [3H]hypoxanthine incorporation | Cam3.I | 72 h | IC50 | 0.015 µM |
| CN(C)CCn1c2ccc([N+](=O)[O-])cc2c(=O)n1Cc1ccccc1 | Leishmania amazonensis | parasite growth, resazurin |  | 72 h, promastigote | IC50 | 34.4 µM |
| COc1cc(CNC(=O)C[C@H](C)CCC=C(C)C)ccc1OCc1cn(-c2cccc(Cl)c2)nn1 | HOP-62 | SRB |  | 10 µM, 48 h | growth percent | 89.3% |
| COC(=O)CCn1c2ccc([N+](=O)[O-])cc2c(=O)n1Cc1ccccc1 | Leishmania amazonensis | parasite growth, imaging | mouse Peritoneal macrophage | 48 h, intracellular, amastigote | IC50 | 0.9 µM |
| COC(=O)C1=CO[C@@H](C)[C@@H]2Cn3ccc4c5ccccc5nc-4c3C[C@H]12 | Plasmodium falciparum | parasite growth, [3H]-hypoxanthine incorporation | 3D7 | 72 h | IC50 | 0.18 ± 0.08 µM |
| NCCn1c2ccc([N+](=O)[O-])cc2c(=O)n1Cc1ccccc1 | Leishmania amazonensis | parasite growth, resazurin |  | 72 h, promastigote | IC50 | 0.9 µM |
| O=[N+]([O-])c1ccc(/C=N/N=C/c2ccc(Br)cc2)o1 | Trypanosoma equiperdum | parasite growth, CellTiter-Glo | IVM-t1 bloodstream form | 72 h | IC50 | 0.71 ± 0.18 µM |
| O=c1c2cc([N+](=O)[O-])ccc2n(CCBr)n1Cc1ccccc1 | Leishmania amazonensis | parasite growth, resazurin |  | 72 h, promastigote | IC50 | 1.2 µM |
| O=[N+]([O-])c1ccc(/C=N/N=C/c2ccc(F)cc2)s1 | Trypanosoma equiperdum | parasite growth, CellTiter-Glo | IVM-t1 bloodstream form | 72 h | IC50 | 0.57 ± 0.11 µM |
| O=c1c2cc([N+](=O)[O-])ccc2n(CCO)n1Cc1ccccc1 | Leishmania amazonensis | parasite growth, resazurin |  | 72 h, promastigote | IC50 | 1.3 µM |
| CCOC(=O)C(C)NC(=O)CN1C(=O)N/C(=C\c2ccc(C)cc2)C1=O (centres unmarked) | Trypanosoma equiperdum | cell viability | IVM-t1 | 72 h | IC50 | > 57 µM |
